Published values collected from several papers.
Numbered parts are unrelated; each lists some results of a single study.

Study 1 — method: RNA Bind-n-Seq; molecule type: RNA; medium: in vitro; concentration: 365 nM; baseline: no-protein control; direction: higher = stronger binding
Target: RNA binding protein fox-1 homolog 2, RRM domain, GST-SBP tag (RBFOX2, Homo sapiens, UniProt O43251-10, residues 100-194)
Setting: natural RNA segment, single round, ends assumed
Residues (chain): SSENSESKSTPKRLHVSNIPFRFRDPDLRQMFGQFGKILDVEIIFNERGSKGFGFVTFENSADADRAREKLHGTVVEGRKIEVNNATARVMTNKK
| Strand | RBNS enrichment (R) |
| --- | --- |
| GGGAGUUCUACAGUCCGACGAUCCUCCGCGGCGUGGCUCCUGCUGCCAUCAGCUGCCUUCUCUGCUGAAGUCCAACUCAAGUCGGAGAGAGAGUGGAGCCUCUGCACUUGGGGAGUAGGUCAGUGUCAACUAAUGGAAUUCUCGGGUGCCAA | 0.374 |
| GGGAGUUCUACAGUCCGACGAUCAGCUAGCUACAUUGCAGCAGAGUUGUUGUGUAUGUGUGCAUUUAAAGAAGAUAAUGCUUAUUCUGUUAAUGCACACUUUUAAGUUUUGAUGAUUUUUUACAGUGUUUUAGUGGAAUUCUCGGGUGCCAA | 0.363 |
| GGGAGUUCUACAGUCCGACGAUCGUUAAUUUUCUUUAGAUGUGUAAAACUGUUCAUUGUAGUGUAAAUGUCAGGGUCUGUUCUAGUCUAUGUCAAGCAAUAACUGUCAGUGCAUAAAUCGAUUAGUCUGCUGUUGGAAUUCUCGGGUGCCAA | 0.387 |
| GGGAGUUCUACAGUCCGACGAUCCCUUGACUUAAUAUUAAAUCCUAAGGAUUUUAUGUAAGGUUUUUUUGCAACCUAUUUAAUUUUUUUUAAAUGCCUAACUUCUGAGGUGCAUAAGCCCGUGGUUUGUGUACUGGAAUUCUCGGGUGCCAA | 0.763 |
| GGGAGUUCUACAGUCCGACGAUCUUCCCUUGGGGCUUGCCGGCCAGACUUCUCUCCCCUGCGGCUCCCACCUCUGCCUGACCCCAGCCUUAAACAUAGCCCCUGGCCAGAGGCCUUGCUGGGUGGAGCCUCUGUGGAAUUCUCGGGUGCCAA | 0.252 |
| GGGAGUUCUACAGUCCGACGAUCUGUGCAAUUGGAGAAUCUUGCCUUUUUUCUUGGCUCCCCCCAAAAAUACAAACCAACAGAAACUUGUUAUGCACUCAUCAAAAUGUACUAAUGGGUACUCUGAACUCAUUUGGAAUUCUCGGGUGCCAA | 0.467 |
| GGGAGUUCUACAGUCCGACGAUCUGGAGGCAGGGGCUGCUGCCUUGUUUCACCUUCCAUGUCAGGCCAGCCUGUCCCUGAAAGAGAAGAUGGCCAUGCCCUCCAUGUGUAAGAACAAUGCCAGGGCCCAGGAGUGGAAUUCUCGGGUGCCAA | 0.814 |
| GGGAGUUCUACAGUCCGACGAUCAACUCGUAUAGGUGAACAUUCUUGGAGGCUUAUCUCUUCCCUGGCCAGAUGCCUGAUCAGAUGAGAAGCCCGCCAUGAUACUGUCACAGUGCCUAGAAUGGGCUCUUUAUUGGAAUUCUCGGGUGCCAA | 0.201 |
| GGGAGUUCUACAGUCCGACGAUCAUGGAUGAAGUUGAAGAGAAAUCUAAAGAUGUUAUAAACUUUACUGCCGAGAAACUUUCAGUAGAUGAAGUCUCACAGUUGGUGAUUUCUCCGCUCUGUGGUGCAAUAUCUGGAAUUCUCGGGUGCCAA | 0.542 |
| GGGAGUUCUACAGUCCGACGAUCAUUUGAGGCUCUGAUUGCUGAGCCAGCCUCCUCCCAGGCGGUUUCCCCAGGACUCUCGUAGGAAAUAAAUAGCCCUUUCAAGAUUCCUCAGCUGCCUCACCCCCUGCACAUGGAAUUCUCGGGUGCCAA | 0.469 |
| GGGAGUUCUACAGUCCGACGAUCGUGAAGGAGCUUGCUGGAUAAAGGCACGAUGGGGCUUUUUAUGGAGUAAAGUUUCUUGAUUUCAACUAUAAUGAAUACUUUGCCUGUCUAGUUAGUACUGGCAGGACAUAUGGAAUUCUCGGGUGCCAA | 0.493 |
| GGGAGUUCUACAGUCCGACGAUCCAUGGGAGCCUCUUAGUGAUUGUGUCAGUAUUAUUGUGGAAGAUUGCCUUUGCUGUUGUAUGUAAAGUUUCAAAUUGCUCCUCUUGUGACUUUUCAGCCAGUACCAUUUUUGGAAUUCUCGGGUGCCAA | 0.467 |

Study 2 — method: protein-binding microarray; molecule type: double-stranded DNA, one strand shown; medium: in vitro; concentration: 2540 nM top; setting: 60-bp whole probe; added: salmon DNA 0.4 mg/ml; baseline: random background probes; direction: higher = stronger binding; constant ends, left off below: GCCTAGCAC … GTCTTGATTCGCTTGACGCTGCTG
Target: Interferon regulatory factor 3, full length, phosphomimetic (IRF3, Homo sapiens, UniProt Q14653, residues 1-427, S386D/S396D/S398D/S402D/T404D/S405D)
Construct (chain): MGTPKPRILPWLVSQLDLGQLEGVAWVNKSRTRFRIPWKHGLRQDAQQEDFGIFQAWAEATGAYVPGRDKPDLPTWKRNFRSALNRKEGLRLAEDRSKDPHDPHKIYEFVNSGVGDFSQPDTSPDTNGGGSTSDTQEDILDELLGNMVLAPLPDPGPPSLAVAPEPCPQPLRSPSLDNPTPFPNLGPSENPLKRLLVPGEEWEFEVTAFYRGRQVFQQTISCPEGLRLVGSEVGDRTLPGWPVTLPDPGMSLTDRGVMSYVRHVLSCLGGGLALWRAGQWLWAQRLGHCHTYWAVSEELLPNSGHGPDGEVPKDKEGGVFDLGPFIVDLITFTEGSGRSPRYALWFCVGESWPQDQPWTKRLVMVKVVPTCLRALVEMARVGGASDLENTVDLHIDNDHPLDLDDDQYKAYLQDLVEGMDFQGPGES
| Strand | fitted relative affinity [z-score] |
| --- | --- |
| GACGGTTCCGGTTCCGGGACGTGCTAG | 4.97 |
| TTAGGGCTGCTTCTCCTTTAGTGCTAG | -0.48 |
| GACGGTCTCTTTCTCCTGACGTGCTAG | 2.09 |
| GACGGTATCGACTTTCCGGACGTGCTA | 1.73 |
| TCAGGTATGGCCTATTTAACTGTGCTA | -0.323 |
| TCAATTTCAGTTTTCTTACTGTGCTAG | 4.97 |
| ATGCCCCCCAAGAGGGGCGGGTGCTAG | -0.144 |
| TTAGGCTTCCTTTTCCTTTAGTGCTAG | 3.01 |
| GGGCATTTGGAAAATGTAAACGTGCTA | -0.0708 |
| GACGGTTCCGGGTTTCGGGACGTGCTA | 2.43 |
| TCATGTCTTCCCCTCTCACTGTGCTAG | 0.442 |
| TTAGGTTTCGGACTGGTTTAGTGCTAG | 4.45 |
| TTAGATTCCAGTTTCGATTGGTGCTAG | 4.43 |
| GACGGACTGGGTTACGGGACGTGCTAG | -0.597 |
| TTAGAACTGGGGACTGGCTTAGTGCTA | -1.08 |
| TCATCTCCCAAGTCTTGTACTGTGCTA | 0.897 |
| GGCGAACTGGGGTATCGAGACGTGCTA | -0.866 |
| AAAGTCTTCACTCTGCTGAAGTGCTAG | -0.0048 |
| TTAGAACTGAGTATCGAATAGTGCTAG | 0.0367 |

Study 3 — method: RNAcompete; molecule type: RNA; medium: in vitro; concentration: 20 nM; setting: 7-mer, probes averaged, single round; baseline: mean of 7-mers; direction: higher = stronger binding
Target: PABPC1L2, full length, GST fusion (mouse, UniProt A0ABA7IW68)
Residues (chain): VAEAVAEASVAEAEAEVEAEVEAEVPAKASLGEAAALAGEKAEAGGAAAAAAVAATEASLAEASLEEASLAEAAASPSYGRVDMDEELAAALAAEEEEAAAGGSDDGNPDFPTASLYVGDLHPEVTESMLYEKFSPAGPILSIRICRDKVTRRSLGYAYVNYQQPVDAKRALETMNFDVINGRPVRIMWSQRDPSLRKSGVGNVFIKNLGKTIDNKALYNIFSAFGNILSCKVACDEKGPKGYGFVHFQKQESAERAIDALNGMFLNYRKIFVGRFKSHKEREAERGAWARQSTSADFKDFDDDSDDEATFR
| Strand | 7-mer Z-score |
| --- | --- |
| GGUCGUU | -0.456 |
| UCAUGAG | -0.135 |
| GCGGUGA | 0.00254 |
| AAUGGGA | 0.479 |
| UUGACGA | -0.0863 |
| CGGAGAU | -0.05 |
| CGAACCG | -0.255 |
| GCAUCUU | -0.258 |
| CUAAGAC | -0.0246 |
| AGUGUAA | 0.254 |
| CUGCUUC | -0.354 |
| UAUCAGU | -0.26 |
| UCGCCAC | -0.291 |
| CAGAUGC | -0.0971 |
| UAGAAGA | 0.262 |
| AGUGGAG | 0.155 |

Study 4 — method: RNA Bind-n-Seq; molecule type: RNA; medium: in vitro; concentration: 1 µM; setting: whole 134-nt RNA, ends assumed; added: 150 mM KCl; baseline: input library; direction: higher = stronger binding
Target: Ras GTPase-activating protein-binding protein 1, C-terminal RGG region (G3BP1, Homo sapiens, UniProt Q13283)
UniProt Q13283, sequence (whole entry, looked up): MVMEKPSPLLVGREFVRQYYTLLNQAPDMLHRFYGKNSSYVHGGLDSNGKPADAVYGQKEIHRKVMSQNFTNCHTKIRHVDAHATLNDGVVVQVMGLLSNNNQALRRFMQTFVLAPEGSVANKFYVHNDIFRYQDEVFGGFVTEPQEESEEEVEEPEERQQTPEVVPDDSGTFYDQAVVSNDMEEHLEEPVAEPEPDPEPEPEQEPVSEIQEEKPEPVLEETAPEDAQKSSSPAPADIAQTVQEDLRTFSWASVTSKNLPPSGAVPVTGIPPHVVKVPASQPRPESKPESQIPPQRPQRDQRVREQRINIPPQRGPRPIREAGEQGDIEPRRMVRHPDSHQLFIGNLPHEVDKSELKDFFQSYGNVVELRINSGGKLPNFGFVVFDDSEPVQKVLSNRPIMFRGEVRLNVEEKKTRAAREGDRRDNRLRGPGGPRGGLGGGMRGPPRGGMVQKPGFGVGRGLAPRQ
| Strand | log2 enrichment |
| --- | --- |
| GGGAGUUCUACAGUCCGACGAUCACCAUGCAGGUGGACAUCUUUGGGAAGUGGGGCAAGGGGGGGAUAGGGAGGGGGGUAACACUUUGGGAACAGGUGGUCCCAGGUCGUUUCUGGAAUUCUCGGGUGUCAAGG | -1.24 |
| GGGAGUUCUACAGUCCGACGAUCUGGGAGGUGGAUUGUGUUUAUUUUUUUAGCUCAUUUCCAGGGGUGGGAAUUUUUUUUUAAUAUGUGUCAUGAAUAAAGUUGUUUUUGAAAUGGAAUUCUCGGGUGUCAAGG | 3.3 |
| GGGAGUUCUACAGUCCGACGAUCUAACUUUAGAGGAGGAUCUGAUGGAUAUGGCAGUGGACGUGGGUUUGGGGAUGGCUAUAAUGGGUAUGGAGGAGGACCUGGAGGUGGCAAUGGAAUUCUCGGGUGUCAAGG | -0.687 |
| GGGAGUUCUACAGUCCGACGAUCGCAGGAAGUAAAAACAAAUGGAAAUGCUUCGGAUAGUGGGAGGGGUGGGGGUUGCUAAGGAAAGGGUGGGAUGGGAGUGGGUAAAGAGUUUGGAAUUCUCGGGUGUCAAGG | 1.88 |
| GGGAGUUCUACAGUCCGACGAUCUCAAGUCCUGUGCUACACAUCGUAUGUACCGAAUCGGAAAAAGGAGGUUUUUGGAAAGUAUUAUGUUACGCCGUUCGGAUCUGCACUUCCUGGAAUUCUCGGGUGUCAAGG | -1.07 |
| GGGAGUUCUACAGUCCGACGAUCUCAAGUCCUGUGCUACACAUCGUAUGUACCGAAUCGGGAAAGGGAGGGAAAGGGAAAGUAUUAUGUUACGCCGUUCGGAUCUGCACUUCCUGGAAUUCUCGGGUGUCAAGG | 1.79 |
| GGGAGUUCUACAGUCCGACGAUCUGGGAGGCGGAUUUUGUUUAUUUUUUUAGCUCAUUUCCAGGGGUGGGAAUUUUUUUUUAAUAUGUGUCAUGAAUAAAGUUGUUUUUGAAAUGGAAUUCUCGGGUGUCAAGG | 4.06 |
| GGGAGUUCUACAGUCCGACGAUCCACAGACAACACGCAACCACACAGACACAGAGGGAAGGGGUUGGGAUGGGGACAGGGUGCACAGCAGGGCGGGGUAGGACCCCAGCCCCUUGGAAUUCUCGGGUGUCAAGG | -0.532 |
| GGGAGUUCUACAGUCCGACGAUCCUCAAGUCCUGUGCUACACAUCGUAUGUACCGAAUCGGUUUGGAAAGGUUUGGAAAGUAUUAUGUUACGCCGUUCGGAUCUGCACUUCCAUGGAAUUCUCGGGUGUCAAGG | -0.991 |
| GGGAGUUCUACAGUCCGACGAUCGUCCUGUGCUACACAUCGUAUGUACCGAAUCGGGGUUUUUUUGGGGAGGGGUUUGGGGAAAGUAUUAUGUUACGCCGUUCGGAUCUGCACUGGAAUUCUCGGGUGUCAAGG | 2.18 |

Study 5 — method: universal PBM; molecule type: double-stranded DNA, one strand shown; medium: in vitro; concentration: not given; direction: higher = stronger binding
Target: Sal-like protein 4, full length isoform B (SALL4, Homo sapiens, UniProt Q9UJQ4-2, residues 1-616)
Setting: 8-mer, flanks averaged, mean of replicates
| Strand | E-score |
| --- | --- |
| GCGCGCAC | -0.169 |
| CAAGATGA | 0.0158 |
| GTGGGTTA | 0.0811 |
| AATAGCCA | 0.128 |
| CATATCGC | 0.151 |
| GATTACCC | 0.0388 |
| AAGCCCAC | -0.144 |
| AATGCCGA | -0.0577 |
| GCTCGACC | -0.29 |
| CAGAAAAC | -0.0276 |
| CGTCAATC | -0.00245 |
| ATTAACTC | 0.22 |
| AATGGCAG | 0.0705 |
| CTAGCAGC | -0.192 |
| ATGTGGGA | 0.0361 |
| ATCGTGAA | 0.0315 |
| CTAGCGCC | -0.238 |
| CAAATGTC | 0.0453 |
| GATAAGAC | 0.126 |
| GTCTCAGA | -0.143 |
| CGTAGAGA | -0.0621 |
| ACGGAGCA | -0.00681 |
| CGTCTGCC | -0.169 |
| TCCTTACA | 0.0783 |
| TGCGCTAA | -0.0189 |
